Experimental data of several laboratories.
Parts stem from different laboratories: compare values within a part only. Positions count from the first letter of the parent shown.

Block 1 — technique: RNA Bind-n-Seq; molecule type: RNA; medium: in vitro; tested at: 365 nM; baseline: no-protein control; direction: higher = stronger binding
Target: RNA binding protein fox-1 homolog 2, RRM domain, GST-SBP tag (RBFOX2, Homo sapiens, UniProt O43251-10, residues 100-194)
Notes: natural RNA segment, single round, ends assumed
Target sequence (chain): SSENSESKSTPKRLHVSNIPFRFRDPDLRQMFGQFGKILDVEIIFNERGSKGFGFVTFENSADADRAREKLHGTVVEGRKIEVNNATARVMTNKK
For `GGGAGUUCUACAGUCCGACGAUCGCCACACCGCACUGAGGACUCCAAGGCCUUCGCGGGACCAUGCCGGCCGGGCUGCCUCGUCUUACUCAAGUUGUAUUAAGUUGUCUCCGUGUCCCUUCCUCCCUCUGCCCUGGAAUUCUCGGGUGCCAA`, “RBNS enrichment (R)” read 0.575.
Under “RBNS enrichment (R)”, `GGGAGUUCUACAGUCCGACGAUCACCCUCUCUCUCUCAAGCUGCCACAUGUAACGCCCUUGCUGCUUCUGUGUGUGGGUGAUUGGAUGUGGGGGUGGGGCCCGUGGAGAGCCGGUGCCCCUCCCCAUCUCCCCUGGAAUUCUCGGGUGCCAA` is recorded as 0.425.
`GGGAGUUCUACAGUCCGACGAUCAAGAGAGGUUUUGGCUUGUCACAGCAAGGGGAUGCUCUUGGCAUCUAGUGAGUGGAGGCCAGGGAUGCUGCCCUGCCACUGCCAUUGGGCCUCAGAGCUCAGUCUUGCCAUGGAAUUCUCGGGUGCCAA` — result for “RBNS enrichment (R)”: 0.575.
For `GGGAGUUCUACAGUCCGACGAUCUAUAAAUCUAAUUUUUCCAUAAAUUAGAUUUAUGAUAUUUUCAUAAAGCACUUGAUUAGUUUUUCAAGGCGUACCAUCACAAAGAUGCUUUCCUGCAGAGUUCUUUGUAUUGGAAUUCUCGGGUGCCAA`, “RBNS enrichment (R)” read 0.433.
`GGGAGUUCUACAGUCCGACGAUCCCCAAAUAGCUAGGAUCACACUCCAAGUAUGGGCAGUGAUGGCGCUCUGGGGGCCACAGUGGGCUAUCUAGGCCCUCCCUCACCUGAGGCCCAGAGUGGACACAGCUGUUUGGAAUUCUCGGGUGCCAA` — result for “RBNS enrichment (R)”: 0.234.

Block 2 — target: CCNE2, cyclin fold, Cln2 fusion (human); technique: yeast growth competition, sequencing; medium: yeast; notes: weak parent motif; baseline: not given; direction: higher = stronger binding
Parent: CDC6 docking peptide (human); TLKGRRLVFDNQL
For `TLKGRRLVFDHQL [N11H]`, “normalised enrichment score” read 0.572.
Under “normalised enrichment score”, `YLKGRRLVFDNQL [T1Y]` is recorded as 0.533.
Under “normalised enrichment score”, `TLKGRRLVFDNQK [L13K]` is recorded as -0.122.
Under “normalised enrichment score”, `TLKGRRLVFDNQQ [L13Q]` is recorded as 0.868.
`TLKGARLVFDNQL [R5A]` — result for “normalised enrichment score”: 0.421.
Under “normalised enrichment score”, `TMKGRRLVFDNQL [L2M]` is recorded as 0.0877.
Under “normalised enrichment score”, `ILKGRRLVFDNQL [T1I]` is recorded as 0.423.
For `TLNGRRLVFDNQL [K3N]`, “normalised enrichment score” read 0.487.
For `TLKIRRLVFDNQL [G4I]`, “normalised enrichment score” read 1.05.
Under “normalised enrichment score”, `TEKGRRLVFDNQL [L2E]` is recorded as 0.244.

Block 3 — technique: aptamer microarray, sandwich; molecule type: DNA with 2'F-ANA; medium: in vitro; tested at: 200 nM; together with: Cy3 exosite-II aptamer, 400 nM; direction: higher = stronger binding; oligonucleotide: GGTTGGTGTGGTTGG
Target: Prothrombin, mature alpha-thrombin (F2, Homo sapiens, UniProt P00734)
Notes: whole 15-mer aptamer, many near background
`2'F-ANA at 2 3 4 5 6 11 13 15` — result for “mean fluorescence intensity”: 57.7 a.u.
`2'F-ANA at 1 2 3 8 9 10 12 13 15`: “mean fluorescence intensity” 87.5 a.u.
For `2'F-ANA at 1 3 6 8 10 14 15`, “mean fluorescence intensity” read 56.8 a.u.
`2'F-ANA at 1 2 4 7 8 9 10 13`: “mean fluorescence intensity” 65.6 a.u.
`2'F-ANA at 2 3 7 9 10 11 14 15`: “mean fluorescence intensity” 263 a.u.
Under “mean fluorescence intensity”, `2'F-ANA at 2 3 7 8 10 13 14` is recorded as 316 a.u.
Under “mean fluorescence intensity”, `2'F-ANA at 3 4 8 10 11` is recorded as 243 a.u.

Single results of other studies
`PhoQ, residues 284 288 289 292 302 303 NLALSC` gave a fold induction of 1.38 (PhoP, residues 12 14 15 18 19 LHSVW (Escherichia coli, UniProt P23836); Sort-seq, item: YFP reporter; E. coli; PhoQ-PhoP variant library, together with: 10 µM Mg2+; baseline: high Mg2+ state, higher = stronger signaling).

Excerpt of the above (block 2):
Under “normalised enrichment score”, `TMKGRRLVFDNQL [L2M]` is recorded as 0.0877.
Under “normalised enrichment score”, `ILKGRRLVFDNQL [T1I]` is recorded as 0.423.
For `TLNGRRLVFDNQL [K3N]`, “normalised enrichment score” read 0.487.
For `TLKIRRLVFDNQL [G4I]`, “normalised enrichment score” read 1.05.
